{"data": "Results of several laboratories", "organism": "Staphylococcus aureus", "note": "Lines come from different studies, so protocols differ."}
{"SMILES": "CN(C)c1cc(CNCCC(C)(C)C)c(O)c2c1C[C@H]1C[C@H]3[C@H](N(C)C)C(O)=C(C(N)=O)C(=O)[C@@]3(O)C(O)=C1C2=O", "test": "microbial growth", "test system": "MRSA", "MIC": "1 µg/mL"}
{"SMILES": "CC[P+](CC)(CC)[Au-][S+](C[C@H]1O[C@H](O[C@H]2O[C@H](COC(C)=O)[C@@H](OC(C)=O)[C@H](OC(C)=O)[C@H]2OC(C)=O)[C@H](OC(C)=O)[C@@H](OC(C)=O)[C@@H]1OC(C)=O)[Au-][P+](CC)(CC)CC.[Cl-]", "test": "broth microdilution", "test system": "JE2 USA300", "MIC": "0.006 µM"}
{"SMILES": "CCCCO[C@H]1[C@H](O)[C@@H](N)[C@@H](O[C@H]2[C@H](O[C@@H]3O[C@H](CO)[C@@H](O[C@H]4O[C@@H](CN)[C@@H](O)[C@H](O)[C@H]4N)[C@H]3O)[C@@H](O)[C@H](N)C[C@@H]2N)O[C@@H]1CO", "test": "broth microdilution", "test system": "MRSA isolate AG 042", "MIC": "16 µg/mL"}
{"SMILES": "CCCCc1ccc(N2C(=O)/C(=N\\NC(=N)N)c3cc([N+](=O)[O-])ccc32)cc1", "test": "microbial growth, broth dilution", "setting": "18 h", "MIC": "> 192 µg/mL"}
{"SMILES": "Cc1csc(NCc2cc(N(C)C)c3c(c2O)C(=O)C2=C(O)[C@]4(O)C(=O)C(C(N)=O)=C(O)[C@@H](N(C)C)[C@@H]4C[C@@H]2C3)n1", "test": "microbial growth, broth dilution", "MIC": "4 µg/mL"}
{"SMILES": "COC1C(C)C2C(C=CC3C(C)C=CC=CC(C)OC(=O)C(C)C(=O)C(Cl)(Cl)C(=O)C32)CC1(C)O (stereo not shown)", "test": "microbial growth, broth dilution", "test system": "NEWMAN", "MIC": "1.6 µg/mL"}
{"SMILES": "COc1cc(Cc2cnc(N)nc2N)cc(/C=C/C(=O)N2N=Cc3ccccc3C2C=C(C)C)c1OC (stereo not shown)", "test": "microbial growth, broth dilution", "test system": "ATCC29213", "setting": "pH 7", "MIC": "0.06 to 0.125 µg/mL"}
{"SMILES": "CN(C)c1cc(CN2CCc3ccccc3C2)c(O)c2c1C[C@H]1C[C@H]3[C@H](N(C)C)C(O)=C(C(N)=O)C(=O)[C@@]3(O)C(O)=C1C2=O", "test system": "MRSA 5, Tet M, 50% mouse serum", "MIC": "> 64 µg/mL"}
{"SMILES": "O=C1OCC(O)N1/N=C/c1ccc([N+](=O)[O-])o1 (stereo not shown)", "test": "microbial growth, broth dilution", "test system": "ATCC29213", "setting": "18 h", "MIC": "1.56 µg/mL"}
{"SMILES": "CNCc1cc(N(C)C)c2c(c1O)C(=O)C1=C(O)[C@]3(O)C(=O)C(C(N)=O)=C(O)[C@@H](N(C)C)[C@@H]3C[C@@H]1C2", "test": "microbial growth, broth dilution", "MIC": "4 µg/mL"}
{"SMILES": "CNC(CC(C)C)C(=O)NC1C(=O)NC(CC(N)=O)C(=O)NC2C(=O)NC3C(=O)NC(C(=O)NC(C(=O)O)c4cc(O)cc(O)c4-c4cc3ccc4O)C(O)c3ccc(c(Cl)c3)Oc3cc2cc(c3OC2OC(CO)C(O)C(O)C2OC2CC(C)(NC(=O)CCCCCCCCC[n+]3ccccc3)C(O)C(C)O2)Oc2ccc(cc2Cl)C1O (stereo not shown)", "test": "agar dilution", "test system": "MRSA clinical isolate MRSA4", "MIC": "128 µg/mL"}
{"SMILES": "Nn1c(CCc2c[nH]c3ccccc23)nc2cc(Cl)ccc2c1=O", "test": "broth microdilution", "test system": "RN6390B", "MIC": "> 100 µM"}
{"SMILES": "CNC(CC(C)C)C(=O)NC1C(=O)NC(CC(N)=O)C(=O)NC2C(=O)NC3C(=O)NC(C(=O)NC(C(=O)NCCCNC(=N)N)c4cc(O)cc(O)c4-c4cc3ccc4O)C(O)c3ccc(c(Cl)c3)Oc3cc2cc(c3OC2OC(CO)C(O)C(O)C2OC2CC(C)(NCc3ccc(-c4ccc(Cl)cc4)cc3)C(O)C(C)O2)Oc2ccc(cc2Cl)C1O (stereo not shown)", "test system": "Sensitive ATCC 25923", "MIC": "0.04 µg/mL"}
{"SMILES": "Oc1c(Br)cc(Br)c2nc3cc(I)ccc3nc12", "test": "broth microdilution", "test system": "MRSA 44", "MIC": "0.05 µM"}
{"SMILES": "Cc1cc(=O)nc(NC(=O)NCCCCCCNC(=O)NCCCCCCNC(=O)OCCOCCOCCOCCOCCOCCOCC(=O)N[C@@H](CC(C)C)C(=O)N[C@@H](CCCCN)C(=O)N[C@@H](CC(C)C)C(=O)N[C@@H](CC(C)C)C(=O)N[C@@H](CCCCN)C(=O)N[C@@H](CCCCN)C(=O)N[C@@H](CC(C)C)C(=O)N[C@@H](CC(C)C)C(=O)N[C@@H](CCCCN)C(=O)N[C@@H](CCCCN)C(=O)N[C@@H](CC(C)C)C(=O)N[C@@H](CC(C)C)C(=O)N[C@@H](CCCCN)C(=O)N[C@@H](CC(C)C)C(=O)N[C@@H](CC(C)C)C(N)=O)[nH]1", "test system": "MSSA RN 4220, RPMI medium", "setting": "24 h, 37 °C", "MIC": "3.7 µM"}
{"SMILES": "CCCS[C@H]1[C@H](O)[C@@H](N)[C@@H](O[C@H]2[C@H](O[C@@H]3O[C@H](CO)[C@@H](O[C@H]4O[C@@H](CN)[C@@H](O)[C@H](O)[C@H]4N)[C@H]3O)[C@@H](O)[C@H](N)C[C@@H]2N)O[C@@H]1CO", "test system": "methicillin-resistant", "MIC": "1 to 2 µg/mL"}
{"SMILES": "CN(C)c1ccc2c(CC(=O)NCCCn3cc(CCCCC(=O)Oc4c(Br)cc(Br)cc4-c4[nH]c(Br)c(Br)c4Br)nn3)cc(=O)oc2c1", "test": "microbial growth, broth dilution", "test system": "NCTC8325", "setting": "20 h", "MIC": "0.25 µg/mL"}
{"SMILES": "COC(Cn1ccn(C)[c]1=[Ag][O]C(C)=O)c1ccccc1 (stereo not shown)", "test": "broth dilution", "test system": "ATCC 23235", "setting": "18 h, 37 °C", "MIC": "5 µg/mL"}
{"SMILES": "CN(C)c1cc(CN2CCCCCC2)c(O)c2c1C[C@H]1C[C@H]3[C@H](N(C)C)C(O)=C(C(N)=O)C(=O)[C@@]3(O)C(O)=C1C2=O", "test system": "MRSA 5, Tet M ribosome protection", "MIC": "1 µg/mL"}
{"SMILES": "CC1CCN(CCCN2/C(=C/c3cc(/C=C/c4c[nH]c5ccccc45)[n+](C)c4ccccc34)Sc3ccccc32)CC1", "test": "microbial growth, broth dilution", "test system": "ATCCBAA1720 MRSA", "MIC": "16 µg/mL"}
{"SMILES": "CC(C)CNCc1cc(N(C)C)c2c(c1O)C(=O)C1=C(O)[C@]3(O)C(=O)C(C(N)=O)=C(O)[C@@H](N(C)C)[C@@H]3C[C@@H]1C2", "test": "microbial growth", "test system": "MRSA", "MIC": "1 µg/mL"}
{"SMILES": "Cn1c(C23CC4CC(CC(C4)C2)C3)nn(CCN2CCCC2)c1=S", "test": "two-fold dilution", "test system": "IFO 3060", "setting": "24 h, 36 °C", "MIC": "4 µg/mL"}
{"SMILES": "Oc1c(Cl)cc(Cl)c2cccnc12", "test": "microbial growth, agar dilution", "test system": "ATCC25923", "MIC": "37.4 µM"}
{"SMILES": "CCCCCCCCCc1nc2ccc(Cl)cc2c(=O)n1CCN", "test": "broth microdilution", "test system": "RN6390B", "MIC": "25 to 50 µM"}
{"SMILES": "COc1cc(OC)c2c(c1)C(=O)c1cc3oc(=O)cc(-c4ccc(Cl)cc4)c3c(O)c1C2=O", "test": "microbial growth", "MIC": "64 µg/mL"}
{"SMILES": "CC1OCC2OC(OC3C(N)CC(N)C(O)C3OC3OC(CO)C(OC4OC(CN)C(O)C(O)C4N)C3O)C(N)C(O)C2O1 (stereo not shown)", "test": "broth microdilution", "test system": "MRSA isolate AG 039", "MIC": "64 to 128 µg/mL"}
{"SMILES": "CN(C)c1cc(CNCC2CCCCC2)c(O)c2c1C[C@H]1C[C@H]3[C@H](N(C)C)C(O)=C(C(N)=O)C(=O)[C@@]3(O)C(O)=C1C2=O", "test system": "MRSA 5, Tet M ribosome protection", "MIC": "1 µg/mL"}
{"SMILES": "CNC(CC(C)C)C(=O)NC1C(=O)NC(CC(N)=O)C(=O)NC2C(=O)NC3C(=O)NC(C(=O)NC(C(=O)O)c4cc(O)cc(O)c4-c4cc3ccc4O)C(O)c3ccc(c(Cl)c3)Oc3cc2cc(c3OC2OC(CO)C(O)C(O)C2OC2CC(C)(NC(=O)CCCCCC[N+]3(C)CCOCC3)C(O)C(C)O2)Oc2ccc(cc2Cl)C1O (stereo not shown)", "test": "agar dilution", "test system": "MRSA clinical isolate MRSA4", "MIC": "32 µg/mL"}
{"SMILES": "Cc1cc2[nH]c(C(=O)Nc3ccccc3C)c(CN3CCOCC3)c2s1", "test system": "ATCC 29213, LB broth", "setting": "20 h", "MIC": "> 200 µM"}
{"SMILES": "CCc1nc(N)nc(N)c1C#CC(C)c1cc(-c2cc(C)nc(C)c2)ccc1OC(F)(F)F (racemic)", "test": "broth microdilution", "test system": "ATCC 43300", "setting": "18 h, 37 °C", "MIC": "0.625 µg/mL"}
{"SMILES": "O=C(O)c1ccc(-n2cc(/C=N/Nc3ccc([N+](=O)[O-])cc3)c(-c3cccc(F)c3)n2)cc1", "test": "microbial growth", "test system": "ATCC25923", "MIC": "3.12 µg/mL"}
{"note": "Repeated from above:"}
{"SMILES": "CNC(CC(C)C)C(=O)NC1C(=O)NC(CC(N)=O)C(=O)NC2C(=O)NC3C(=O)NC(C(=O)NC(C(=O)NCCCNC(=N)N)c4cc(O)cc(O)c4-c4cc3ccc4O)C(O)c3ccc(c(Cl)c3)Oc3cc2cc(c3OC2OC(CO)C(O)C(O)C2OC2CC(C)(NCc3ccc(-c4ccc(Cl)cc4)cc3)C(O)C(C)O2)Oc2ccc(cc2Cl)C1O (stereo not shown)", "test system": "Sensitive ATCC 25923", "MIC": "0.04 µg/mL"}
{"SMILES": "CN(C)c1ccc2c(CC(=O)NCCCn3cc(CCCCC(=O)Oc4c(Br)cc(Br)cc4-c4[nH]c(Br)c(Br)c4Br)nn3)cc(=O)oc2c1", "test": "microbial growth, broth dilution", "test system": "NCTC8325", "setting": "20 h", "MIC": "0.25 µg/mL"}
{"SMILES": "Oc1c(Cl)cc(Cl)c2cccnc12", "test": "microbial growth, agar dilution", "test system": "ATCC25923", "MIC": "37.4 µM"}
